Measured values gathered from unrelated publications.
Lines come from different studies, so protocols differ. Numbers after ± are the reported error.

For CNC(=O)c1cccc(-c2ccc3c(N4CCOC[C@@H]4C)nc(N4CCOC[C@@H]4C)nc3n2)c1, the unbound fraction was 0.0547 (human plasma).
The unbound fraction of Cn1cnc2c(F)c(Nc3ccc(Br)cc3Cl)c(C(=O)NOCCO)cc21 is reported as 0.556% (ESRD on hemodialysis, plasma; oral, 50 mg, dosed after dialysis, median).
The unbound fraction of COCCOc1nc(N)c2nc(O)n(Cc3ccc(C(=O)NCCOCCOCCOCCOCCOCCOCCN=[N+]=[N-])cc3)c2n1 is reported as 0.629 (rapid equilibrium dialysis; dialyzed fetal bovine serum).
CC(C)C[C@H](NC(=O)CNC(=O)c1cc(Cl)ccc1Cl)B(O)O gave an unbound fraction of 0.0098 ± 0.0046 (rapid equilibrium dialysis; severe hepatic impairment patients, plasma; 3 h).
The unbound fraction of COCCOc1nc(N)c2nc(O)n(Cc3ccc(C(=O)NCCOCCOCCOCCOCCOCCOCCOCCOCCOCCOCCN=[N+]=[N-])cc3)c2n1 is reported as 0.555 (rapid equilibrium dialysis; dialyzed fetal bovine serum).
The unbound fraction of C[C@H]1CO[C@@H]2Cn3cc(C(=O)NCc4ccc(F)cc4F)c(=O)c(O)c3C(=O)N12 is reported as 0.00103 (HIV-infected adults, plasma; intramuscular, at Cmax, every 8 weeks, median).
The unbound fraction of Clc1ccccc1C(c1ccccc1)(c1ccccc1)n1ccnc1 is reported as 0.661 ± 0.042 (equilibrium dialysis; 5 nM CYP26A1 in buffer; 1 µM, 12 h, pH 7.4, IC50 assay conditions).
With COCCOc1nc(N)c2[nH]c(=O)n(Cc3ccc(C(=O)O)cc3)c2n1 the unbound fraction was 0.746 (rapid equilibrium dialysis; dialyzed fetal bovine serum).
With CCCS(=O)(=O)Nc1ccc(F)c(C(=O)c2c[nH]c3ncc(-c4ccc(Cl)cc4)cc23)c1F the unbound fraction was 7.9e-06 ± 9e-07 (rapid equilibrium dialysis; 100% human plasma; 350 µM, 4 h).

Some of these lines once more:
For CNC(=O)c1cccc(-c2ccc3c(N4CCOC[C@@H]4C)nc(N4CCOC[C@@H]4C)nc3n2)c1, the unbound fraction was 0.0547 (human plasma).
